# Measured values collected from several papers.
# Protocols differ between the studies behind these lines. ± gives the spread as reported.
Structure (SMILES),target or system,assay,test system,setting,how to read,endpoint,result
CCn1cc(-c2cc(Cn3ccnc3)cc3c2CCN([C@H](c2cc(OC)ccn2)C2CC2)C3=O)c(C(F)(F)F)n1,KYM1,cell growth,,120 h,,EC50,3.62 µM
Cn1cc(Nc2nccc(-c3ccc4c(c3)CN(C3COC3)CC[C@H]4NC(=O)c3cn(C(C)(C)C)nn3)n2)cn1,mouse splenic B cells,item: PI3K/AKT signalling,,"30 mg/kg, IgD-activated in vivo","reference: vehicle, direction not given",pathway activation z-score,-1.28
N[C@@H](Cc1cc(I)c(Oc2cc(I)c(O)c(I)c2)c(I)c1)C(=O)O,human iPSC-derived cardiomyocytes,"MyBP-C/MYH ratio, plate-normalised SD score",,"concentration not given, primary screen",direction not given,activity score,-3.2
CCn1cc(-c2cc(Cn3ccoc3=N)cc3c2CCN([C@@H](C)c2cc(OC)ccn2)C3=O)c(C(F)(F)F)n1,HH,"cell growth, inhibitor",,120 h,,EC50,0.0816 µM
C1CCC(C(CC2CCCCN2)C2CCCCC2)CC1 (stereo not shown),MYBPC3 iPSC cardiomyocytes,plate-normalised,,"concentration not given, 24 h, hit retest",,MyBP-C level,2.2%
O=C(/C=C/C=C/C=C/C1CCCCC1)NC1=C[C@@](O)(/C=C/C=C/C=C/C(=O)NC2=C(O)CCC2=O)[C@@H]2O[C@@H]2C1=O,NCI-H2347,"cell growth, CellTiter-Glo",,78 h,,GI50,12.2 µM
Cn1cc(-c2ccc(-c3cncc(Cl)c3N3CCC4(CCNC4=O)CC3)cc2)cn1,COLO 205,"gene expression, microarray, item: ARHGEF39 mRNA",,"concentration not given, 6 h",reference: untreated cells,log2 fold change,-2.26
N#Cc1ccc2c(c1)[C@H]1CCCN(C(=O)c3ccc4[nH]cnc4c3)[C@H]1C2,,,"human, Phase II trial","oral, 80 mg once daily, day 28, adjusted mean, SE",,systolic blood pressure change,-2.8 mmHg
CC(Cc1cccc(C(F)(F)F)c1)NCCOC(=O)c1ccccc1 (stereo not shown),human iPSC-derived cardiomyocytes,"MyBP-C/MYH ratio, plate-normalised SD score",,"concentration not given, primary screen",direction not given,activity score,5
CC(C)[C@H](NC(=O)[C@H](Cc1ccc(O)cc1)NC(=O)[C@H](Cc1ccc(O)cc1)NC(=O)[C@@H]1CCCN1C(=O)[C@H](CCC(=O)O)NC(=O)[C@H](CCC(=O)O)NC(=O)[C@H](Cc1c[nH]c2ccccc12)NC(=O)[C@@H]1CCCN1C(=O)[C@@H](NC(=O)[C@H](CCC(N)=O)NC(=O)c1ccc2c(c1)C(=O)OC21c2ccc(O)cc2Oc2cc(O)ccc21)C(C)C)C(=O)N[C@H](C(=O)N[C@@H](CCCCN)C(=O)N[C@@H](CCCCN)C(=O)N[C@@H](CO)C(=O)N[C@@H](CO)C(=O)NCC(=O)NCC(N)=O)C(C)C,,,"human, plasma","intravenous infusion, 200 mg, 0.08333 h",,plasma concentration,1230 ng/mL
CCOc1c([C@H](C)n2nc(C)c3c(N)ncnc32)cc(Cl)c(F)c1[C@@H]1CNC(=O)C1,,,human Hodgkin lymphoma patients,"oral, 30 mg, day 15, geometric mean",,AUC(0-tau),19.2 µM·h
COc1cnc2cccc(N3CCc4c(cc(Cn5ccnc5C)cc4-c4cn(C)nc4C(F)(F)F)C3=O)c2c1,HT,cell growth,,120 h,,EC50,> 30 µM
CC(C)C[C@H](NC(=O)C[C@H](O)[C@H](CC(C)C)NC(=O)[C@H](Cc1c[nH]cn1)NC(=O)CNC(=O)[C@@H](NC(=O)[C@H](C)NC(=O)[C@H](Cc1c[nH]c2ccccc12)NC(=O)[C@H](CCC(N)=O)NC(=O)[C@@H](Cc1ccccc1)NC(=O)COCCOCCNC(=O)CCC(C(=O)O)N1CCN(CC(=O)O)CCN(CC(=O)O)CCN(CC(=O)O)CC1)C(C)C)C(N)=O (stereo partly shown) [lutetium-177 labelled],,,"BALB/c nu/nu mice, lung","intravenous, 50 pmol, 1 h, with: PA 300 µg",,tissue uptake,0.6 ± 0.1 %ID/g

# A few entries again:
Structure (SMILES),target or system,assay,test system,setting,how to read,endpoint,result
Cn1cc(-c2ccc(-c3cncc(Cl)c3N3CCC4(CCNC4=O)CC3)cc2)cn1,COLO 205,"gene expression, microarray, item: ARHGEF39 mRNA",,"concentration not given, 6 h",reference: untreated cells,log2 fold change,-2.26
N#Cc1ccc2c(c1)[C@H]1CCCN(C(=O)c3ccc4[nH]cnc4c3)[C@H]1C2,,,"human, Phase II trial","oral, 80 mg once daily, day 28, adjusted mean, SE",,systolic blood pressure change,-2.8 mmHg
